Measured values pooled from the literature.
Compare with care: the assays were run in different laboratories. “And” joins repeats or separate records; there may be more than shown.
Target: Serine/threonine-protein kinase 17A (STK17A, Homo sapiens, UniProt Q9UEE5)

`COCC12C(=O)NC3C4(C(OC)CC1O)C1CC5(O)C(OC)C(O)C(OC(C)=O)(C1C5OC(=O)c1ccccc1)C3(O)C(OC)C24` (stereo not drawn) gave a remaining activity of 73% and 72% (kinase activity, inhibitor, ProQinase kinase profiling; 25 µM; baseline: control).
The remaining binding of `CCN1CCN(Cc2ccc(C(=O)Nc3ccc(C)c(NCc4cnc5[nH]ccc5c4OC)c3)cc2C(F)(F)F)CC1` is reported as 100% (binding, competition with immobilised ligand; 1 µM).
The inhibition of `CN1CC[C@@H](COc2cnc(C#N)cc2-c2ccn3nc(NC(=O)C4CC4)cc3c2)C1` is reported as 16% (enzyme activity, inhibitor; 1 µM).
`CNC(=O)C1CCN(c2cc(C)c(F)cc2NC(=O)c2ccc(-c3cc(O)ccc3C)c(C)c2)CC1` has a remaining binding of 100% (binding, competition with immobilised ligand; 1 µM).
For `COc1c(Cl)cccc1Nc1c(-c2ccncc2C#C[C@@]2(C)CCCN2C(=O)/C=C/CN(C)C)[nH]c2c1C(=O)NCC2`, the remaining binding was 85% (cell-free assay, competition with immobilised ligand; 3 µM).
For `C=CC(=O)N1CCc2ccc(-n3c(=O)ccc4cnc5ccc(-c6cnn(C)c6)cc5c43)cc21`, the remaining binding was 100% (KINOMEscan; 1 µM; baseline: DMSO control).
`CC(C)=CC1OC(C)(C)C2C=C3C(=O)C(Cl)=CC(O)C3C3C(O)C4OC4C(=O)C132` (stereo not drawn) has a remaining binding of 89% (cell-free assay, competition with immobilised ligand; 10 µM).
`NC(=O)C[C@H]1CCc2sc3ncnc(O[C@H]4CC[C@H](N5CCOCC5)CC4)c3c21` gave an inhibition of 3% (enzyme activity, inhibitor; 10 µM).
With `Cc1ccc(C(=O)Nc2ccc(CN3CCN(C)CC3)c(C(F)(F)F)c2)cc1C#Cc1cnc2cccnn12` the Hill slope was 0.823 (target engagement, NanoBRET; human cells).
`CNC1C[S+]2CC[S+]3CC[S+](C1)[Ru-4]321([N]=C=S)[n]2c3ccc(OC)cc3c3c4c(c5cc(F)c[n+]1c5c32)C(=O)NC4=O` (stereo not drawn) gave a remaining binding of 49% (KinomeScan; 0.1 µM; baseline: untreated).
`Cc1cnc2nc1Nc1cccc(c1)COC/C=C/COCc1cc(ccc1OCCN1CCOCC1)N2` has a remaining binding of 100% (binding, competition with immobilised ligand; 0.1 µM).
`O=C(Cc1ccc(OCc2ccccc2)cc1)NC1(C(=O)O)CCN(C(=O)c2ccc(-c3cccc(Cl)c3)cc2)CC1`: “activity vs control” 137% (enzyme activity, inhibitor; 10 µM).
For `CCn1cc(C(=O)O)c(=O)c2c(N)c(F)c(NC3CCCCC3)cc21`, the inhibition was 15.7% (kinase activity; 0.1 µM, added: ATP at Km).
`COc1cc(Nc2nccc(-c3cnn4nc(OC)ccc34)n2)cc(C(F)(F)F)c1` gave a remaining binding of 99% (binding, competition with immobilised ligand; 1 µM).
`COc1c(OCCCN2CCOCC2)ccc2c1N=C(NC(=O)c1cnc(N)nc1)N1CCN=C21` gave a remaining activity of 92% (kinase activity, inhibitor; 1 µM; baseline: untreated control).
